Results gathered from unrelated publications.
Lines come from different studies, so protocols differ. ± gives the spread as reported.
KCNJ13 M125R: Inward rectifier potassium channel 13 (KCNJ13, Homo sapiens, UniProt O60928, M125R)
Squalene synthase ERG9: Squalene synthase ERG9 (Saccharomyces cerevisiae, UniProt P29704)
CDPK1: Calmodulin-domain protein kinase 1 (CDPK1, Toxoplasma gondii, UniProt Q9BJF5)
Beta-glucuronidase: Beta-glucuronidase (Lachnospira eligens, UniProt C4Z6Z2)
SUMO-activating enzyme subunit 2 with SAE1: SUMO-activating enzyme subunit 2, with SAE1 (Homo sapiens, UniProt Q9UBT2)
hdac6 CD2 catalytic domain: Histone deacetylase 6, CD2 catalytic domain (hdac6, Danio rerio, UniProt F8W4B7)
HSP90AA1: Heat shock protein HSP 90-alpha (HSP90AA1, Homo sapiens, UniProt P07900)
Grin1/Grin2a/Grin2b MK-801 channel binding site: Grin1/Grin2a/Grin2b, MK-801 channel binding site (Rattus norvegicus, UniProt P35439+Q00959+Q00960)
pol NS2B-NS3 protease: Genome polyprotein, NS2B-NS3 protease (pol, Dengue virus type 3, UniProt Q6YMS4)

Sequences of proteins named here, by UniProt entry; tags and fusion partners are left off. Residues count along the entry.
UniProt O60928, whole entry M125R: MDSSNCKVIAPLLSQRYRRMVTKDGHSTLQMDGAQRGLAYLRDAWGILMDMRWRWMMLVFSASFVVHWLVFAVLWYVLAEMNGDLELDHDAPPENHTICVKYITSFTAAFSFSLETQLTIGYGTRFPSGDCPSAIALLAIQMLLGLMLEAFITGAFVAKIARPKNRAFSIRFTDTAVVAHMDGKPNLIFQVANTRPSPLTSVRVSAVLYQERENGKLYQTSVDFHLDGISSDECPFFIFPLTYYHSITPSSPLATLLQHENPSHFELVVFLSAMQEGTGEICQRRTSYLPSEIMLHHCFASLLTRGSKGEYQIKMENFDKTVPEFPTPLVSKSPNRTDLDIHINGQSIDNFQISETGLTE
UniProt P29704, 1-420 limits assumed: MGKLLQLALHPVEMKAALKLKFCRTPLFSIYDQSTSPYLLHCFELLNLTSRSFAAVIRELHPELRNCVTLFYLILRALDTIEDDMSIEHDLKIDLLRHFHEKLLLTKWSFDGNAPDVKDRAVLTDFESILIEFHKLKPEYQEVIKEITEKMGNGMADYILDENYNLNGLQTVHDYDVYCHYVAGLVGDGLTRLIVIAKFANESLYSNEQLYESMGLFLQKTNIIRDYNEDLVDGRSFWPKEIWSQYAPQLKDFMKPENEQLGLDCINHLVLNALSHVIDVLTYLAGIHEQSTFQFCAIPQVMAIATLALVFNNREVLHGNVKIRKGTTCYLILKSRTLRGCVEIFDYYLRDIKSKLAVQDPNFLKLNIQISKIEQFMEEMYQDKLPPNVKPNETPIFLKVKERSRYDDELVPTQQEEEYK
UniProt Q9BJF5, 1-507: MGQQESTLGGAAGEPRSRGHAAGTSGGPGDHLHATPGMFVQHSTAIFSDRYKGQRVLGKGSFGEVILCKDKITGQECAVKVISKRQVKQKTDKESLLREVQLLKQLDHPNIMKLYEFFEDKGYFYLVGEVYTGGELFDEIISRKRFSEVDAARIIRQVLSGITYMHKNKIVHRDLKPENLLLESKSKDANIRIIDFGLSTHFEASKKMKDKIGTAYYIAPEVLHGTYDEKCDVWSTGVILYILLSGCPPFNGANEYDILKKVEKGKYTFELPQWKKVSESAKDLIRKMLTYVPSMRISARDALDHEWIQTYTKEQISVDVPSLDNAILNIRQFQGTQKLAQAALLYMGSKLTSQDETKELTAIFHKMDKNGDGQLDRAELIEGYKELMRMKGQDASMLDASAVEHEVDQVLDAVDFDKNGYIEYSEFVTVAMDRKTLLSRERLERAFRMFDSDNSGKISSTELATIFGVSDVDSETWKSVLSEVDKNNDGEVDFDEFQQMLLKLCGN
UniProt C4Z6Z2, 1-611: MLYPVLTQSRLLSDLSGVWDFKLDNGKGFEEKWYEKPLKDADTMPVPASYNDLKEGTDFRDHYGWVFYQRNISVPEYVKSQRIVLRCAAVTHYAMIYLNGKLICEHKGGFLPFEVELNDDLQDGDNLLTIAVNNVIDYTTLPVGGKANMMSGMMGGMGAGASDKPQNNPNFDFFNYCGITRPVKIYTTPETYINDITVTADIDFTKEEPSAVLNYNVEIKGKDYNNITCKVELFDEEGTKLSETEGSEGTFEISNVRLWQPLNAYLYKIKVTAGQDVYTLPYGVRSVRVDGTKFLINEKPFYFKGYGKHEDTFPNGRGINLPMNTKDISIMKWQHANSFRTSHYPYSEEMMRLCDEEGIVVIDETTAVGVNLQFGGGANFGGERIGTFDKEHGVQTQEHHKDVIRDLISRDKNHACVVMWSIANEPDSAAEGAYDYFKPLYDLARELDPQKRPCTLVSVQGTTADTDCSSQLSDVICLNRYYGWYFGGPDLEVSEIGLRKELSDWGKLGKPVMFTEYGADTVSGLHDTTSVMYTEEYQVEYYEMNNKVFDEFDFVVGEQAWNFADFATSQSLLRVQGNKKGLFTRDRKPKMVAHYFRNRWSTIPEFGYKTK
UniProt P27958, 2421-3011 limits assumed: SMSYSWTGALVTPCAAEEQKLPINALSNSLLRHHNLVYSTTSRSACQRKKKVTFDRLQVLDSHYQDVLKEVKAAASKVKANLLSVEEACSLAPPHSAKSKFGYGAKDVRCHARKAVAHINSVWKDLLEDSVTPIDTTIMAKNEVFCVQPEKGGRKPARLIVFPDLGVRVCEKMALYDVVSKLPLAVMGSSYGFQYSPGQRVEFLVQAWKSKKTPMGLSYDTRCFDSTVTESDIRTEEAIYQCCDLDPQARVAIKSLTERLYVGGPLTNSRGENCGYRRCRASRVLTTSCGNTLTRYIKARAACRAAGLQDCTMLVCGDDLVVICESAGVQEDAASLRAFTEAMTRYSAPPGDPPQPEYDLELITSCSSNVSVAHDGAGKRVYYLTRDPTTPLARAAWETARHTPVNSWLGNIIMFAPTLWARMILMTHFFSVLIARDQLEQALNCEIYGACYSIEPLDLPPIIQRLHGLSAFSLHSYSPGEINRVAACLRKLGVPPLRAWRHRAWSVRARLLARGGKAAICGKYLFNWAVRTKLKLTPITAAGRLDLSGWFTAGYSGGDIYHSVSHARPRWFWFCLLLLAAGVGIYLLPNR
UniProt P61073, whole entry: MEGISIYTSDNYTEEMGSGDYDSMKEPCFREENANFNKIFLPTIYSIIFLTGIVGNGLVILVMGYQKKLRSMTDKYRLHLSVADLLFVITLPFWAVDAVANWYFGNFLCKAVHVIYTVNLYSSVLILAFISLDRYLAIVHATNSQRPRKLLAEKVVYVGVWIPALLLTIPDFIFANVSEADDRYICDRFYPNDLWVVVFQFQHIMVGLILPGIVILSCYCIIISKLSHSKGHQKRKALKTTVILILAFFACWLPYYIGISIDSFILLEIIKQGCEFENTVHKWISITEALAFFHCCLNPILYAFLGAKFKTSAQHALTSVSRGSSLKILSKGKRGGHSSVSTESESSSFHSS
UniProt O00519, whole entry: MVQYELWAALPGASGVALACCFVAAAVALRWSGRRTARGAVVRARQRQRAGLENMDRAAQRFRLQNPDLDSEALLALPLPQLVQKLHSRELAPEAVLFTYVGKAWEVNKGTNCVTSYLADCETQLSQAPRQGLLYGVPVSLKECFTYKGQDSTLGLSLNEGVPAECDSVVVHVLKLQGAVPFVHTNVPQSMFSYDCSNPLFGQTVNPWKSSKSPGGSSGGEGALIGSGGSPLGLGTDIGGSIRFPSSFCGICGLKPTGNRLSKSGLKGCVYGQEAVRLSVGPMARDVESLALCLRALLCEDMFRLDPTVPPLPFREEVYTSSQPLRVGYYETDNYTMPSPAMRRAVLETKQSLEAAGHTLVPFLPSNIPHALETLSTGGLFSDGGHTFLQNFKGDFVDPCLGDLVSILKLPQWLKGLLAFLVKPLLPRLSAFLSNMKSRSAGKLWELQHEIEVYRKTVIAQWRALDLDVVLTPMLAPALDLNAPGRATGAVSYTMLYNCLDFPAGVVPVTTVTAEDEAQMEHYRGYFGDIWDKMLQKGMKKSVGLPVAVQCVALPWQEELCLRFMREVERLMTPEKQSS
UniProt O60603, whole entry, looked up: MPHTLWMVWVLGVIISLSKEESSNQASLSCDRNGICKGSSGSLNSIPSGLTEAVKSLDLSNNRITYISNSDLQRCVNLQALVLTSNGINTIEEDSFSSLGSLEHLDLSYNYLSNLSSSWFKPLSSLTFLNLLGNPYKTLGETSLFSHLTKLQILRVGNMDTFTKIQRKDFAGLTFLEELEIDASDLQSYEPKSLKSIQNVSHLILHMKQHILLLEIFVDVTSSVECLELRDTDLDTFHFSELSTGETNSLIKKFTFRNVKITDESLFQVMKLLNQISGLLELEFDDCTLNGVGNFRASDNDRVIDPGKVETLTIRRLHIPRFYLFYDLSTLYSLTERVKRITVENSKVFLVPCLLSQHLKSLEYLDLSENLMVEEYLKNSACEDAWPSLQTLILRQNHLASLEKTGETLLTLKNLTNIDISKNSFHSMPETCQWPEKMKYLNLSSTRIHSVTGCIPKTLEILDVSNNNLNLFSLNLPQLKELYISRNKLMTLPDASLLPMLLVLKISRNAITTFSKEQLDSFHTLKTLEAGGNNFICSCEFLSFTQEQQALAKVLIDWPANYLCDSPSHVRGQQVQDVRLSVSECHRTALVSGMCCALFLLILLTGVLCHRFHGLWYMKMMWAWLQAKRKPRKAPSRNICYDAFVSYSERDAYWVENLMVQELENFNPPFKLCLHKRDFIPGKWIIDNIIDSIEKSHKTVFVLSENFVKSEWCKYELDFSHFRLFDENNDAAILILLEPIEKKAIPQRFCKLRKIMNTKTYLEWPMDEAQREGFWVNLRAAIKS
UniProt P51681, whole entry: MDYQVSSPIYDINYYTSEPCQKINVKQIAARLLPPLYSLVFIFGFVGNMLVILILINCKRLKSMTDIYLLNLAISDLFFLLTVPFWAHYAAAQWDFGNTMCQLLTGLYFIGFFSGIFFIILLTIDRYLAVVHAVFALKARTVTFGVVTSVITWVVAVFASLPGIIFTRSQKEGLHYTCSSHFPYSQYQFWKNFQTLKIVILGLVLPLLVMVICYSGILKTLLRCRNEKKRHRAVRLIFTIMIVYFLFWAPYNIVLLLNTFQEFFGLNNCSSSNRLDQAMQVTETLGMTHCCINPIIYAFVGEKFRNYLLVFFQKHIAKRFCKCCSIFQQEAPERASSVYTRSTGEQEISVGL
UniProt P0AES4, whole entry: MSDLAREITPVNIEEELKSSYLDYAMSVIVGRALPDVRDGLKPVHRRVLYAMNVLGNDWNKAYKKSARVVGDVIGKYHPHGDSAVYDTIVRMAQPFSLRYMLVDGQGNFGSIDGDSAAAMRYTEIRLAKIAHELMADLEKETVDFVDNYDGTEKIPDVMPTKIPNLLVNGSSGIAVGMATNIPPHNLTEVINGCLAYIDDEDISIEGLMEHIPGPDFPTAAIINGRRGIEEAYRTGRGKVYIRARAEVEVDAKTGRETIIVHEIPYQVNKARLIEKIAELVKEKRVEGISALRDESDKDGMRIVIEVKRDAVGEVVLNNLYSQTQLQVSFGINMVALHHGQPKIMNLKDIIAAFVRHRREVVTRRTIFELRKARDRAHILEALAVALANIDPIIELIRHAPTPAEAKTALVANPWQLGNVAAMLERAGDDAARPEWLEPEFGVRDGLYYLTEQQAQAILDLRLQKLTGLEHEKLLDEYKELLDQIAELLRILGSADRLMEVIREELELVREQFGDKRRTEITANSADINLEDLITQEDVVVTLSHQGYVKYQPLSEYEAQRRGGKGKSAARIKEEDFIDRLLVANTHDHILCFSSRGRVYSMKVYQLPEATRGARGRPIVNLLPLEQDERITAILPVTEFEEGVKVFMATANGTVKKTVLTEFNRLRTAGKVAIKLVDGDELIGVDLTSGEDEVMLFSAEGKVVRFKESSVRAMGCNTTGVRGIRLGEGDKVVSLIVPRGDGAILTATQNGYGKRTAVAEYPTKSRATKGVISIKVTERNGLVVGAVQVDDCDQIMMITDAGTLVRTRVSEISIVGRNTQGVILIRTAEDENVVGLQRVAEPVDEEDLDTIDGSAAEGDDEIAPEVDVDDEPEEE
UniProt P19650, whole entry: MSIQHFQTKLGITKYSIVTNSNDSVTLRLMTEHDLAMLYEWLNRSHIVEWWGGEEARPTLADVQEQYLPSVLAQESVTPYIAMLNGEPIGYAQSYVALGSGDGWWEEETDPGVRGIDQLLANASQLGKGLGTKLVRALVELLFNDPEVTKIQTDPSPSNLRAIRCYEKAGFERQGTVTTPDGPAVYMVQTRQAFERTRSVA

Structure (SMILES) | target | assay | system | setting | IC50
COc1cccc(C(=O)NC2CCN(Cc3cc(Cl)c4cccnc4c3O)CC2)c1 | KCNJ13 M125R | ion current, inhibitor, thallium flux | T-REx-HEK293 | – | 9300 nM
C=C(CC/C=C(\C)CCC=C(C)C)CN1[C@@H](COP(=O)(O)CP(=O)(O)O)[C@]1(C)CC/C=C(\C)CCC=C(C)C (relative stereo) | Squalene synthase ERG9 | enzyme activity, inhibitor | – | pH 7.2, tetrabutylammonium salt, added: 100 µM [3H]FPP, no added pyrophosphate | 99800 ± 18500 nM
Cc1cnc(Nc2ccc(N3CCN(C)CC3)cc2)nc1Nc1cccc(NS(=O)(=O)C(C)(C)C)c1 | FLT3 (Homo sapiens, UniProt P36888) | kinase activity | – | added: ATP 10 µM | 0.9 nM
CO[C@H]1[C@H](O[C@H]([C@H]2O[C@@H](n3ccc(=O)[nH]c3=O)[C@H](O)[C@@H]2O)[C@H](NCCCNC(=O)[C@@H](NC(=O)[C@@H](NC(=O)N[C@H](C(=O)O)C(C)C)[C@@H]2CCNC(=N)N2)[C@@H](OC(=O)CCCCCCCCCCCCNC(=N)N)C(C)C)C(N)=O)O[C@H](CN)[C@H]1O | Undecaprenyl-phosphate alpha-N-acetylglucosaminyl 1-phosphate transferase (wecA, Escherichia coli, UniProt P0AC78) | enzyme activity, inhibitor | – | – | 120 ± 10 nM
O=C(O)C(Cc1nn[nH]n1)[C@@H]1CCN[C@H]1C(=O)O (relative stereo) | native kainate receptor, rat | binding | rat cortical synaptosomes | added: [3H]kainate | 93000 nM
O=C(NC1CCN(Cc2cc(Cl)c3cccnc3c2O)CC1)c1ccccc1F | KCNJ13 M125R | ion current, inhibitor, thallium flux | T-REx-HEK293 | – | 9600 nM
NC(=O)c1cc(Sc2ccc(OC(F)(F)F)cc2)nc2ccccc12 | CDPK1 | kinase activity, inhibitor, ELISA | – | added: syntide-2 substrate, ATP 25 µM | 700 nM
NC(=O)c1ccc(-c2ncc(OCC3CCNCC3)nc2-c2ccc(-c3ccoc3)cc2)cc1 | Genome polyprotein, NS2B-NS3 protease (ZIKV, UniProt A0A024B7W1) | enzyme activity, inhibitor | – | Gly4-Ser-Gly4-linked NS2B-NS3 protease | 1050 ± 70 nM
Nc1c(S(=O)(=O)Oc2ccccc2NC(=O)Cc2c[nH]c3ccccc23)ccc2ccccc12 | 5'-nucleotidase (NT5E, Homo sapiens, UniProt P21589) | malachite green | human | – | 1170 ± 130 nM
O=c1ccn([C@@H]2O[C@H](COP(=O)(O)OP(=O)(O)OP(=O)(O)O)[C@@H](O)[C@]2(F)Br)c(=O)[nH]1 | Genome polyprotein, NS5B polymerase (Hepatitis C virus genotype 1a, UniProt P27958) | polymerase activity, inhibitor | genotype 1a | – | 380 nM
OCCNc1nc(N2CCNCC2)c2sc3nc(-c4ccccc4)ccc3c2n1 | Beta-glucuronidase | enzyme activity, inhibitor | – | – | 500 ± 100 nM
C=CC[C@@H](Nc1ccc(OC)cc1)C12C=CC(O1)C(C(=O)OC)=C2C(=O)OC (some centres unmarked) | SUMO-activating enzyme subunit 2 with SAE1 | SUMOylation, inhibitor, AlphaScreen | – | added: SUMO1-RanGAP1 conjugation | 22100 nM
O=C(NC1CCN(Cc2cc(Cl)c3cccnc3c2O)CC1)c1cccc(C(F)(F)F)c1 | KCNJ13 M125R | ion current, inhibitor, thallium flux | T-REx-HEK293 | – | 6100 nM
O=C(O)CC1(n2cnnn2)CCCCC1 | VIM-2 (Escherichia coli, UniProt Q5U7L7) | – | – | 10 min preincubation, added: FC5 fluorogenic substrate | 858000 nM
O=C(NO)c1cccc(F)c1F | hdac6 CD2 catalytic domain | enzyme activity, inhibitor, fluorogenic | – | 30 min, added: Ac-RHK(Ac)K(Ac)-AMC | 1700 ± 200 nM
CN(Cc1cn(-c2ccc(OCCCF)cc2)nn1)S(=O)(=O)c1ccc(CN2CCOCC2)cc1 | CXCR4 (Homo sapiens, UniProt P61073) | binding, antagonist | MDA-MB-231 | added: biotinylated TN14003 | 6.9 nM
Cc1ccc(S(=O)(=O)N2CCC(C)(C(=O)Nc3ccc4cc(C(=O)O)ccc4c3)CC2)c(C)c1 | FAAH (Homo sapiens, UniProt O00519) | – | – | pH 8, 37 °C, added: OMP substrate 50 µM | 52000 nM
COc1ccc(Sc2cc(C(=O)N3Cc4ccccc4C3)ccc2O)cc1OC | HSP90AA1 | binding, fluorescence polarization | – | added: FITC-geldanamycin tracer | 530 ± 70 nM
COc1cccc2c(N3CCC(CCP(=O)(O)O)CC3)ncnc12 | Enpp1 (Mus musculus, UniProt P06802) | cGAMP degradation, radiolabelled cGAMP TLC | mouse plasma | added: cGAMP 5 µM | 4 nM
CC(=O)N[C@H]1[C@H](O[C@@H]2[C@@H](OC[C@H]3O[C@@H](O[C@H]4[C@H](O)[C@H]5N=C(C)S[C@H]5O[C@@H]4CO)[C@@H](O)[C@@H](O[C@H]4O[C@H](CO)[C@@H](O)[C@H](O)[C@@H]4O[C@@H]4O[C@H](CO)[C@@H](O[C@@H]5O[C@H](CO)[C@H](O)[C@H](O)[C@H]5O)[C@H](O)[C@H]4NC(C)=O)[C@@H]3O)O[C@H](CO)[C@@H](O)[C@@H]2O)O[C@H](CO)[C@@H](O[C@@H]2O[C@H](CO)[C@H](O)[C@H](O)[C@H]2O)[C@@H]1O | endoS (Streptococcus pyogenes, UniProt Q99Y92) | N-glycan hydrolysis, inhibitor, HPAEC-PAD | – | 10 min, pH 7.4, 30 °C, added: sialylated rituximab substrate | 1400 nM
COc1ccc2c(=O)oc3c(OC)cc(CCN4CCCC4)c4c(=O)oc1c2c34 | TLR2 (Homo sapiens, UniProt O60603) | reporter gene, antagonist, SEAP reporter | HEK-Blue hTLR2 cells | 24 h, added: Pam3CSK4 100 ng/mL | 5830 ± 2190 nM
COc1ccc(C(=O)NC2CCN(Cc3cc(Cl)c4cccnc4c3O)CC2)cc1 | KCNJ13 M125R | ion current, inhibitor, thallium flux | T-REx-HEK293 | – | 10100 nM
COC(=O)C1=C(C(=O)OC)C2(C(Cc3ccc(F)cc3)Nc3ccccc3)C=CC1O2 (centres unmarked) | SUMO-activating enzyme subunit 2 with SAE1 | SUMOylation, inhibitor, AlphaScreen | – | added: SUMO1-RanGAP1 conjugation | 1010 nM
COc1ccc(Sc2cc(C(N)=O)c3ccccc3n2)cc1 | CDPK1 | kinase activity, inhibitor, ELISA | – | added: syntide-2 substrate, ATP 25 µM | 580 nM

Structure (SMILES) | target | assay | system | setting | IC50
c1cc2c(nc1N1CCOCC1)sc1c(N3CCNCC3)nnnc12 | Beta-glucuronidase | enzyme activity, inhibitor | – | – | 800 ± 100 nM
CC(=O)N1CCC(C(=O)N(CCCN2C3CCC2CC(NS(=O)(=O)c2ccc(C(=O)NCCOCCOCC(=O)NCCOCCOCC(=O)NCCOCCOCC(=O)NCCOCCOCC(N)=O)cc2)C3)c2ccc(C)c(Cl)c2)CC1 (centres unmarked) | CCR5 (Homo sapiens, UniProt P51681) | calcium mobilization, antagonist | CHO expressing Gα16 | added: RANTES 10 nM | 27.4 nM
N=C(N)c1ccc(OCCOCCOc2ccc(C(=N)N)cc2)cc1 | Grin1/Grin2a/Grin2b MK-801 channel binding site | – | – | pH 7 | 3410 ± 520 nM
O=C(NO)c1c(F)c(F)c(F)c(F)c1F | hdac6 CD2 catalytic domain | enzyme activity, inhibitor, fluorogenic | – | 30 min, added: Ac-RHK(Ac)K(Ac)-AMC | > 20000 nM
c1nc(N2CCNCC2)c2sc3nc(N4CCOCC4)ccc3c2n1 | Beta-glucuronidase | enzyme activity, inhibitor | – | – | 600 ± 100 nM
O=C(c1ccc(O)c(Sc2ccccc2)c1)N1Cc2ccccc2C1 | HSP90AA1 | binding, fluorescence polarization | – | added: FITC-geldanamycin tracer | 4870 ± 290 nM
O=C[C@@H]1CCC(=O)NCCCn2cc(nn2)C[C@H](NC(=O)OCc2ccccc2)C(=O)N[C@@H](CC2CCCCC2)C(=O)N1 | Genome polyprotein, 3C-like protease (ORF1, Hu/NV/NV/1968/US, UniProt Q83883) | protease activity, inhibitor, FRET | Norovirus | 1 h, pH 8 | 1600 nM
CCCC(=O)NC1CCCC1 | rhlR (Pseudomonas aeruginosa, UniProt P54292) | reporter gene, antagonist | Escherichia coli JLD271 reporter | added: BHL 10 µM | 52200 nM
N=C(N)c1ccc(NCCOCCNc2ccc(C(=N)N)cc2)cc1 | Grin1/Grin2a/Grin2b MK-801 channel binding site | – | – | pH 7 | 850 ± 230 nM
NCc1ccc(-c2ncc(NCC3CCNCC3)nc2-c2ccc(-c3ccoc3)cc2)cc1 | pol NS2B-NS3 protease | enzyme activity, inhibitor | – | dengue virus type 3 NS2B-NS3 protease | 210 ± 70 nM
CS(=O)(=O)Cc1onc(-c2cccc(Cl)c2)c1-c1ccnc(N[C@@H]2CCN(Cc3nccs3)C2)n1 | cGMP-dependent protein kinase (PKG, Plasmodium falciparum, UniProt Q8I719) | kinase activity, inhibitor, IMAP | – | added: ATP 10 µM, FAM-PKAtide | 792 ± 115 nM
CC(C)Oc1c(NC(=O)c2ccc(NC(=O)[C@H](CC(N)=O)NC(=O)c3cc(F)c(/N=N/c4c(Cl)cc(C#N)cc4Cl)c(F)c3)cc2)ccc(C(=O)N/N=C/c2c(F)cc(C(=O)O)cc2F)c1O | DNA gyrase (gyrA/gyrB, Escherichia coli, UniProt P0AES4+P0AES6) | DNA supercoiling, inhibitor | – | 30 min, 37 °C, after 1 h irradiation at 365 nm | > 25000 nM
O=C([C@H]1O[C@H](O[C@H]2[C@H](O[C@@H]3O[C@H](C(=O)N4CCN(c5ncccn5)CC4)[C@@H](O[C@H]4O[C@@H](CNS(=O)(=O)O)[C@@H](OCc5ccc6ccccc6c5)[C@H](OCc5ccc6ccccc6c5)[C@H]4NS(=O)(=O)O)[C@H]3OCc3ccc4ccccc4c3)[C@@H](OCc3ccc4ccccc4c3)[C@H](NS(=O)(=O)O)C[C@@H]2NS(=O)(=O)O)[C@H](NS(=O)(=O)O)[C@@H](OCc2ccc3ccccc3c2)[C@@H]1OCc1ccc2ccccc2c1)N1CCN(c2ncccn2)CC1 | Heparanase (HPSE, Homo sapiens, UniProt Q9Y251) | enzyme activity, inhibitor, TR-FRET | – | – | < 25 nM
CN1CCN(C(c2ccccc2)c2ccc(Cl)cc2)CC1 (centres unmarked) | RNMT (Homo sapiens, UniProt O43148) | enzyme activity, inhibitor | – | – | 227000 ± 29000 nM
CCN(CCNc1ccc(C)c2sc3ccccc3c(=O)c12)CC(C)(C)O | Bcl-2-related protein A1 (Mus musculus, UniProt Q07440, C113S/P104K) | binding, fluorescence polarization | – | added: FITC-Noxa peptide | 334000 nM
CNc1nc(N2CCNCC2)c2sc3nc(N4CCOCC4)ccc3c2n1 | Beta-glucuronidase | enzyme activity, inhibitor | – | – | 400 ± 100 nM
C=C(CC/C=C(\C)CCC=C(C)C)CN1[C@@H](COP(=O)(O)OP(=O)(O)O)[C@]1(C)CC/C=C(\C)CCC=C(C)C (relative stereo) | Squalene synthase ERG9 | enzyme activity, inhibitor | – | pH 7.2, tetrabutylammonium salt, added: 100 µM [3H]FPP, no added pyrophosphate | 6900 ± 1600 nM
c1ccc(-c2ccc3c(n2)sc2c(N4CCNCC4)ncnc23)cc1 | Beta-glucuronidase (uidA, Escherichia coli, UniProt P05804) | enzyme activity, inhibitor | – | – | 16 ± 9 nM
COC(=O)C1=C(C(=O)OC)C2([C@@H](C)Nc3ccccc3)C=CC1O2 (some centres unmarked) | SUMO-activating enzyme subunit 2 with SAE1 | SUMOylation, inhibitor, AlphaScreen | – | added: SUMO1-RanGAP1 conjugation | 7670 nM
NCc1ccc(-c2ncc(OCC3CCNCC3)nc2-c2ccc3[nH]ccc3c2)cc1 | pol NS2B-NS3 protease | enzyme activity, inhibitor | – | dengue virus type 3 NS2B-NS3 protease | 540 ± 10 nM
NC[C@@H](NC[C@@H]1CCCN1C[C@@H](CO)NC[C@@H](NCCc1ccc(-c2ccccc2)cc1)c1ccccc1)c1ccccc1 | Aminoglycoside N(6')-acetyltransferase type 1 (aacA4, Klebsiella pneumoniae, UniProt P19650) | acetyltransferase activity, inhibitor | – | – | 3000 nM
C=CC[C@H](Nc1ccc(Cl)cc1)C12C=CC(O1)C(C(=O)OC)=C2C(=O)OC (some centres unmarked) | SUMO-activating enzyme subunit 2 with SAE1 | SUMOylation, inhibitor, AlphaScreen | – | added: SUMO1-RanGAP1 conjugation | 4150 nM
O=C(NC1CCN(Cc2cc(Cl)c3cccnc3c2O)CC1)c1cccc(Cl)c1 | KCNJ13 M125R | ion current, inhibitor, thallium flux | T-REx-HEK293 | – | 3100 nM

Repeated from above:
Structure (SMILES) | target | assay | system | setting | IC50
C=CC[C@@H](Nc1ccc(OC)cc1)C12C=CC(O1)C(C(=O)OC)=C2C(=O)OC (some centres unmarked) | SUMO-activating enzyme subunit 2 with SAE1 | SUMOylation, inhibitor, AlphaScreen | – | added: SUMO1-RanGAP1 conjugation | 22100 nM
O=C(NC1CCN(Cc2cc(Cl)c3cccnc3c2O)CC1)c1cccc(C(F)(F)F)c1 | KCNJ13 M125R | ion current, inhibitor, thallium flux | T-REx-HEK293 | – | 6100 nM
O=C(O)CC1(n2cnnn2)CCCCC1 | VIM-2 (Escherichia coli, UniProt Q5U7L7) | – | – | 10 min preincubation, added: FC5 fluorogenic substrate | 858000 nM
O=C(NO)c1cccc(F)c1F | hdac6 CD2 catalytic domain | enzyme activity, inhibitor, fluorogenic | – | 30 min, added: Ac-RHK(Ac)K(Ac)-AMC | 1700 ± 200 nM
